Measurements gathered from unrelated publications.
Protocols differ between the studies behind these lines.

CC1(C)C(=CC=C2CCCC(C=CC3=[N+](CCC[N+](C)(C)C)c4ccc(S(=O)(=O)O)cc4C3(C)C)=C2SCCOCCOCCC(=O)O)N(CCC[N+](C)(C)C)c2ccc(S(=O)(=O)O)cc21  Stokes shift (HEPES buffer with FBS; pH 7.4, 50 mM HEPES, 30% FBS): 30 nm
Nc1ccc2cc(/C=C/C(=O)c3ccc(O)cc3)ccc2c1  Stokes shift (toluene; 20 °C): 110 nm
CC1(C)C(/C=C/C2=C(Cl)C(=C/C=C3/N(CCCCCC(=O)O)c4ccccc4C3(C)C)/C[N+](C)(C)C2)=[N+](CCCCCC(=O)O)c2ccccc21  Stokes shift (methanol): 28 nm
Nc1cccc2ccc(/C=C/C(=O)c3ccc(C(F)(F)F)cc3)cc12  Stokes shift (toluene; 20 °C): 137 nm
COC(=O)c1ccccc1-c1c2ccc(=O)cc-2oc2c1ccc1cccc(O)c12  Stokes shift (12.5 mM aqueous NaOH; pH 12.1, 10% DMSO): 161 nm
CCCCN1C(=O)c2cccc3c(NCCCCCCCCCCN4CCOCC4)ccc(c23)C1=O  Stokes shift (water; pH 6.0): 107 nm
COC(=O)c1ccccc1-c1c2ccc(=O)cc-2oc2c1ccc1cccc(N)c12  Stokes shift (aqueous HCl 10% DMSO; pH 1.9): 172 nm
CCCCN1C(=O)c2cccc3c(NCCCCN4CCOCC4)ccc(c23)C1=O  Stokes shift (dichloromethane): 80 nm
COc1ccc2nc(-c3ccc(N(C)C)cc3)sc2c1  Stokes shift (PBS; free dye): 131 nm

A few entries again:
COC(=O)c1ccccc1-c1c2ccc(=O)cc-2oc2c1ccc1cccc(N)c12  Stokes shift (aqueous HCl 10% DMSO; pH 1.9): 172 nm
